Experimental data gathered from unrelated publications.
A part holds a random share of what one study measured. Positions count from the first letter of the parent shown.

Study 1 — method: RNAcompete; molecule type: RNA; sample: in vitro; concentration: 20 nM; notes: 7-mer, probes averaged, single round; reference: mean of 7-mers; reading: higher = stronger binding
Target: PABPC1L2, full length, GST fusion (mouse, UniProt A0ABA7IW68)
Construct (chain): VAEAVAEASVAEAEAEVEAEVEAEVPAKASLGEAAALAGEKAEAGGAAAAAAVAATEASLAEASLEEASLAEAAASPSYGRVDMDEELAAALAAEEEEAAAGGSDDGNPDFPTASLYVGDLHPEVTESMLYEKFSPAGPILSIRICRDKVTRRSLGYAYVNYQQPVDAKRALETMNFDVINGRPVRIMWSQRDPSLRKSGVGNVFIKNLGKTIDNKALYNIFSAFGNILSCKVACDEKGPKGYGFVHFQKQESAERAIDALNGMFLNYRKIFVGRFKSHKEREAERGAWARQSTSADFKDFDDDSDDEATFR
Oligonucleotide	7-mer Z-score
AGCCGAA	-0.0355
AUUAUAC	-0.161
UCCCUCC	-0.42
GCCAUAG	-0.157
UCCUCAG	-0.342
CCGUGAG	-0.34
GGGACGU	0.0968
UAACUAC	-0.215
CAGAACC	-0.112
AACUCCA	0.066
AGACCUA	-0.224
CCUGAGU	-0.28
GAAGUAC	-0.177
UAGUGGC	0.0315
AGGAAGG	0.206
GUAGAGU	-0.175
CGCCCCU	-0.371
UCGACUG	-0.2
UUCCCAC	-0.445

Study 2 — method: aptamer microarray, sandwich; molecule type: DNA with 2'F-ANA; sample: in vitro; concentration: 200 nM; together with: Cy3 exosite-II aptamer, 400 nM; reading: higher = stronger binding; oligonucleotide: GGTTGGTGTGGTTGG
Target: Prothrombin, mature alpha-thrombin (F2, Homo sapiens, UniProt P00734)
Notes: whole 15-mer aptamer, many near background
Modification	mean fluorescence intensity [a.u.]
2'F-ANA at 1 2 4 5 7 9 11 12 13 15	63
2'F-ANA at 1 3 7 8 9 10 12 13 15	175
2'F-ANA at 1 2 5 6 8 9 10 12 13	49.6
2'F-ANA at 1 2 4 7 11 12 13 14 15	57.6
2'F-ANA at 4 6 8 9 10 11 12 13 15	75.8
2'F-ANA at 1 4 10 11 12	58.5
2'F-ANA at 3 4 5 8 10 11 13	50.2
2'F-ANA at 1 2 4 5 6 12 14	50.3
2'F-ANA at 2 3 6 7 9 12 13 14 15	325
2'F-ANA at 1 2 5 8 9	85.4
2'F-ANA at 2 5 6 8 10 11 12 15	78.3
2'F-ANA at 1 2 3 4 5 6 8 10 13 14	48.1
2'F-ANA at 1 4 5 6 7 8 9 10 14	44.6
2'F-ANA at 1 3 9 10 13 14 15	118
2'F-ANA at 1 2 9 10 12	67.9
2'F-ANA at 1 4 5 6 9 10 11 12 14 15	48.8
2'F-ANA at 1 3 4 8 9 13	133
2'F-ANA at 2 3 4 9 11 13 14	258
2'F-ANA at 3 4 12 13 15	771
2'F-ANA at 2 6 7 10 11 12 13	146
2'F-ANA at 5 7 8 11 12 14 15	48.3
2'F-ANA at 1 5 6 7 9 10 14	47.3
2'F-ANA at 1 2 3 4 5 6 7 9 12	147
2'F-ANA at 1 3 6 10 12 13 14	63.1
2'F-ANA at 1 2 6 7 9 10 13 14	48.1

Study 3 — method: RNA Bind-n-Seq; molecule type: RNA; sample: in vitro; concentration: 365 nM; reference: no-protein control; reading: higher = stronger binding
Target: RNA binding protein fox-1 homolog 2, RRM domain, GST-SBP tag (RBFOX2, Homo sapiens, UniProt O43251-10, residues 100-194)
Notes: natural RNA segment, single round, ends assumed
Shared flanks, not repeated: GGGAGUUCUACAGUCCGACGAUC … UGGAAUUCUCGGGUGCCAA
Target sequence (chain): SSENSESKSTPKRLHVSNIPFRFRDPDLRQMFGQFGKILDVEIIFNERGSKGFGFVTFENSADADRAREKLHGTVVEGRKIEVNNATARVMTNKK
Oligonucleotide	RBNS enrichment (R)
CCAAUGCUAGGACACUGGCCAUGUGCACACCAGCACUCAAGACAAGAAGCCAGCCUCCCGGCCCAGCUGGCCUGGGCAGCCCCAGUGCCCUCAGAAUUACUAUUUUUGUU	0.249
GAAUAUGUGAGGACCUGGACCGCUGGCUGCCUCAGCUGUACCUGGUUUUAAAUGCAGCUUUCUGUAGAGAUUCUACCUGCAGUCUGUUCUCUCUUGGGGUUCCACACCCA	0.567
ACUAAGAUCGGCUGGAAAAGGGUAGGUGUUCUGAGCCCUGUACCGUGCAGGUGGUGGUGGAGCUGAUCCUGCAGGCGCGACCCUGGGACCAGGUCCUGAAUGCCCUGAAG	0.327
GAUUCUAGGAGUCCCUUGAAAGCCUGGAUCAGGUCAAAGUGCCACACAGGUGCCACCUGUCCCAGAUUGUGGCUUGGCAUGGAGCUGCCCACGUCUGGCUGCUGAUGAAC	0.674
CGUGGAGGUGUGUGUGUCCAUGGCAUCCGGAGCGAGGCGACUGUCCUGCGUGGGUAGCCCUCGGCCGGGGAGUGAGGCCACCAACCAAAGUCAGUUCCUUCCCACCUGUG	0.434
GUGUUCCUUCCUGCAGGCCUUGGAGCCCUGACCAGGCCAGUCCUGGGCACUGCUUAGAUGGCUGUUAGCUUAGAACUGGUGAAGUAAAGAUUUGGUCCCAGAAACCAGCC	0.225
CCUACUGGCUCACAAAUGAGGACCAGUGAGCCAUGUCCUUGUUCCUUGUUUGAGACUGGGCUGCAGGCCCCAGGAAGACUUUCCUUCACCCACCAUCCCCCUAACCUCGG	0.572
UUCAUACCUCAAAUUGAUUCAUACCUCAGUUUAAUUCAGAGAGGUCAGUUAAGUGACGGAUUCUGUUGUGGUUUGAAUGCAGUACCAGUGUUCUCUUCGAGCAAAGUAGA	0.326
UUAAUUUAAUGUUUUUUCUUUGUACCUGAUGUGAAUUCUAGCAACCUUUGUUAGGAAAAAGCACAGCCUCAGAUGGAGGCAGCCUAAACUGUGUUCUUGUUUUGUUCAUG	2.27
UGGGGCCCUGGGGUGGGGUAGGCAGAUGGGCCAAGGUGACCACCAUUCUGCCUCAAUCUUUUGCAAGCCCACCUGCCUCUCUCCUGCUGCUCCUCCAGCUGUAUCUGCAC	0.332
UAUGAAUUUUCAAUGCAGCAAAGCUGACUUUCUUUCGUACUCCCAAUAAAUGACUCUUAACAGUAAAUACUGAGUGAAGCCUCUUCUUUACUUACUCCCGGUAAACUGAA	0.722
GUAGAGAAACCGUGGAGAUCGCUUUUCUCAGACUCACCAACUUUUAAUGGGAUUUCAUGGGGUUUGGUUGUGCUGAUAGGGUAAGGGGAGGCUGCUUUCUGCCCUUCUCC	0.413

Study 4 — target: CCNE1, cyclin fold, Cln2 fusion (human); method: yeast growth competition, sequencing; sample: yeast; notes: weak parent motif; reference: not given; reading: higher = stronger binding
Starting sequence: PKN2 docking peptide (human); VSAVQKLDFSDTM
Variant	normalised enrichment score
V4C	0.0825
L7C	-0.271
S10F	0.571
V4A	0.192
V4G	-0.217
F9H	-0.639
D8V	0.745
S10E	1.44
D11Y	0.15
L7K	0.14

Study 5 — method: DHFR PCA, deep sequencing; sample: yeast; together with: (+)-ABA 710 µM; reference: wild-type fitted maximum; reading: higher = stronger binding
Target: ABI1, truncated, D143A, DHFR fusion (Arabidopsis thaliana)
Notes: methotrexate growth selection, single substitutions
Starting sequence: PYL1, truncated, DHFR fusion (Arabidopsis thaliana); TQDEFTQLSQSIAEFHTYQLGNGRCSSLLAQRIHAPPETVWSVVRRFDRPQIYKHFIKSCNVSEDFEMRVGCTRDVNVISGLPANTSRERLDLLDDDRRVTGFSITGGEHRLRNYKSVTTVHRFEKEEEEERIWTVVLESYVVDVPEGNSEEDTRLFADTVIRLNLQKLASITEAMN
Variant	relative binding score
R74I	-20.9%
F5P	101%
G81F	35.2%
T86F	95.6%
M176L	100%
R45V	44.3%
L29Q	94.2%
L29I	100%
R90Y	75.8%
A158K	-0.257%
R111G	68.4%
V161G	-2.88%
R155S	87.2%
D3L	101%
Q10A	108%
S104W	15.9%
D3N	89.9%
T135V	84.8%
E89V	-6.5%
V121T	71.1%
R163D	73.5%
R90Q	103%
S87K	8.67%
R46N	90.6%
Q51N	85.5%

Excerpt of the above (study 2):
Modification	mean fluorescence intensity [a.u.]
2'F-ANA at 3 4 5 8 10 11 13	50.2
2'F-ANA at 1 2 9 10 12	67.9
2'F-ANA at 2 6 7 10 11 12 13	146
2'F-ANA at 1 3 6 10 12 13 14	63.1
2'F-ANA at 2 5 6 8 10 11 12 15	78.3
2'F-ANA at 1 4 5 6 7 8 9 10 14	44.6
2'F-ANA at 1 2 6 7 9 10 13 14	48.1
2'F-ANA at 1 4 5 6 9 10 11 12 14 15	48.8
2'F-ANA at 1 2 5 6 8 9 10 12 13	49.6
2'F-ANA at 1 3 7 8 9 10 12 13 15	175
2'F-ANA at 1 4 10 11 12	58.5
2'F-ANA at 1 3 4 8 9 13	133
